Published values from different studies.
Numbered parts are unrelated; each lists some results of a single study.

Series 1
Target: Centromere-binding protein 1, full length, N-terminal tag (CBF1, Saccharomyces cerevisiae, UniProt P17106, residues 1-351)
UniProt P17106, sequence (whole entry, looked up): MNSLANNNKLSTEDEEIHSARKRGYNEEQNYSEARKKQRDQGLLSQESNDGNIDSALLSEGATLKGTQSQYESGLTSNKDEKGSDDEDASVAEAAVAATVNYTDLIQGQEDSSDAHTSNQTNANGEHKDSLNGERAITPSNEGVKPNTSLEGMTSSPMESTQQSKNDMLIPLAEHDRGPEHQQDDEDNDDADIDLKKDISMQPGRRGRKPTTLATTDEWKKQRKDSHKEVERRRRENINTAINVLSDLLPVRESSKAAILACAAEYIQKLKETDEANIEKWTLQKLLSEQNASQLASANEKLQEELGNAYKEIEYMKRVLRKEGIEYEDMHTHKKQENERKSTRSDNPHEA
Method: protein-binding microarray
Form: double-stranded DNA, one strand shown
Sample: in vitro
Concentration: 0.8 µM
Notes: whole 60-bp probe, no competitor
Reading: higher = stronger binding
All sequences stand within: … GTCTTGATTCGCTTGACGCTGCTG
| Strand | fluorescence intensity [a.u.] |
| --- | --- |
| CTAGTTCCATAGTGTGATCTGATGTTCCTTTCTTTC | 612 |
| TGTACGAAGCTATATCAGACATGTATAGTAGTTAGG | 571 |
| GAAACGAAAGTATATAGCACCACGAGTGAGTTATAG | 592 |
| GAAGAGAGTACTCATCATCACACTATAAGCTTTTAG | 519 |
| CCTAACTACTATAAAGGTAACGTATAGCTTCGTACA | 502 |
| CCTAACTACTATAATGACACGCTATAGCTTCGTACA | 530 |
| GAAATGATAAAAAACCACGGGGTCTTATTTTGCTAG | 1130 |
| CTATCGCAACGGTACGTCGTGATTTTTTTATGGTTC | 700 |
| GAAATACTACTATTTCATCAGATTTGTGCTTTCTAG | 462 |
| GAAAAAGAGGGAAGGCACGCATGGAAGTGACTGTAG | 526 |
| CTAAGACACTGAAGTCAGCTGTTTGAAAGAGTATTC | 743 |
| GAACTCTTTACCACTCAGCTGACTTTATTATTTTAG | 1380 |
| GAACGTTAAAATCTTCACATGGCCCGGCCGCGCTAG | 543 |
| CTATTCCATGTATGGCTGATGGTGGTGTTCAAATTC | 533 |
| CTACTTTTTATTGCAAACGTGCAAACGCATGACTTC | 807 |
| GAAACCAAATGCAATTCAGTCACGTTCCACACATAG | 2850 |

Series 2
Target: RNA binding protein fox-1 homolog 2, RRM domain, GST-SBP tag (RBFOX2, Homo sapiens, UniProt O43251-10, residues 100-194)
Method: RNA Bind-n-Seq
Form: RNA
Sample: in vitro
Concentration: 365 nM
Notes: natural RNA segment, single round, ends assumed
Baseline: no-protein control
Reading: higher = stronger binding
All sequences stand within: GGGAGUUCUACAGUCCGACGAUC … UGGAAUUCUCGGGUGCCAA
Target sequence (chain): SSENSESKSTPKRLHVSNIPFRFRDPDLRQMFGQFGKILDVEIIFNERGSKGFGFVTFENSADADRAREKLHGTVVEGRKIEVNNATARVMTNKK
| Strand | RBNS enrichment (R) |
| --- | --- |
| GGGGACCUCGUGCCUUCUUGCUGUCAUGCAAUGACCCCGCCUUAUGUUGCCGAAAUAAGCAACUCUUAGGUUUGCCUGACUGCCUUAUGCUGGUAAAGAAAAGGGAUUCA | 0.504 |
| UUCCCUAAACUCUUGACACCCCCAGAGGGGUUGAGAUUGUUGUGUGAGUAGGGGGGGGGGGGGAACGGCCUUGCGGAGGCCACCAUAGAACCGUCCUAAUUUUUCAUAGA | 0.412 |
| UGUGAAAGAUUAAAGAAAGCACUUCCACUUGAGCUCCUUAUGGAGUGAGCUUCCCUGUGCCCACUCAGUGAACUAAGUCUGACCAUCCUUCAGGGACGUUCCUUUUGGUA | 0.262 |
| GGCUGGCACCAGGGGAGUGAAACUGGCUGAUGACCAGCUGAGCCACUUUGUGCCAACAGAGGAUGGACGACACCUUUCCCUGUACCCACUGCAGAGGAAGAACCCUGGGC | 0.261 |
| ACGUAGAGUGCCUGGCACUGGCAAGGACUCAGUGGUCCACUAUUGUGACAGUAAUGGUUAUUACAAUAAAAAUAAUAAAAUCACCAUCAUUCUAUUUUUAACCAAAAGUA | 0.41 |
| UUUUAAAUAUGUCUAAAAAUAAAGUAAUCUGGGGACUGAGUUGAAAUGUCAGUGAACAUGAGUAUUACUUCAAAAUCUUACAUCACUUGAUGCUAUAUUCAUUUAUGUCU | 0.543 |
| GAUUCAGCACUUUGCUCUUUUAAUAACAAAUCGUCCAAAGAUCUCAAAGUAAGGGUUUUUUUUUUUAGCUUCCACUCUUCCGCAGACUUGGUCAUCGACCUAUUUUUGUU | 0.618 |
| GCCAGCAGAGCCCGGGGCUCACUCUCCUUUCAGUCAUUCCUCAGCCCUUCGAAGGGAAGCCCAAACACUUUGCACGCUGUGCUGCAGACAUUCUGGCCUGGUGUGUCUGA | 0.706 |

Series 3
Target: Ras GTPase-activating protein-binding protein 1, full length (G3BP1, Homo sapiens, UniProt Q13283)
UniProt Q13283, sequence (whole entry, looked up): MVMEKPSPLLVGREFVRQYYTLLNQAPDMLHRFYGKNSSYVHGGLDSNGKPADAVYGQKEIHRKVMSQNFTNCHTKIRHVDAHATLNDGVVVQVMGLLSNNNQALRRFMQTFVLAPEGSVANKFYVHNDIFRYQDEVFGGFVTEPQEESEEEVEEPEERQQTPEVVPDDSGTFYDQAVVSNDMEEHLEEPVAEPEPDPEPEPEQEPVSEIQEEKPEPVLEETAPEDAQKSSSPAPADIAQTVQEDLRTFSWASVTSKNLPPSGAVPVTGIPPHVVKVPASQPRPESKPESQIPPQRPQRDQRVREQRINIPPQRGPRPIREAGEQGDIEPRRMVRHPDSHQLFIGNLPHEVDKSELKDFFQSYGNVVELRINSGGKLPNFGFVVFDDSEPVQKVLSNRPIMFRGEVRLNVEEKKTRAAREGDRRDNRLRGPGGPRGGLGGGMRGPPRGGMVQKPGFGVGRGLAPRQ
Method: RNA Bind-n-Seq
Form: RNA
Sample: in vitro
Concentration: 200 nM
Notes: whole 134-nt RNA, ends assumed
With: 150 mM KCl
Baseline: input library
Reading: higher = stronger binding
All sequences stand within: GGGAGUUCUACAGUCCGACGAUC … UGGAAUUCUCGGGUGUCAAGG
| Strand | log2 enrichment |
| --- | --- |
| CAAGUCCUGUGCUACACAUCGUAUGUACCGAAUCGGAAAAGGGGAAAAGGAAAAGGAAAGUAUUAUGUUACGCCGUUCGGAUCUGCACUU | -0.943 |
| CUCAAGUCCUGUGCUACACAUCGUAUGUACCGAAUCGGGUGGGGUGGGGUGGGAAAGUAUUAUGUUACGCCGUUCGGAUCUGCACUUCCA | 1.16 |
| AAGUCCUGUGCUACACAUCGUAUGUACCGAAUCGGGGAAAAAGGGGAGGGGUGGGGAAAGUAUUAUGUUACGCCGUUCGGAUCUGCACUU | 0.526 |
| AGUCCUGUGCUACACAUCGUAUGUACCGAAUCGGGUGGGAAAAAAAGGGAAAAAGGGAAAGUAUUAUGUUACGCCGUUCGGAUCUGCACU | -0.158 |
| GCAGGAAGUAAAAACAAAUGGAAAUGCUUCGGAUAGUGGCAGGGGUGGGGGUUGCUAUGGAAAGGGUGGGAUGGGAGUGGGUAAAGAGUU | 1.01 |
| UAACUUUAGAGGAGGAUCUGAUGGAUAUGGCAGUGGACGUAGAUUUGGGGAUGGCUAUAAUGGGUAUGGAGGAGGACCUGGAGGUGGCAA | 0.235 |
| CUGUGCUACACAUCGUAUGUACCGAAUCGGGAAAAAAAGGGAAAAAAAGGGAAAAAAAGGGGAAAGUAUUAUGUUACGCCGUUCGGAUCU | -0.689 |
| AAGUCCUGUGCUACACAUCGUAUGUACCGAAUCGGAAAAAAAGGUGGAAAAAAAGGAAAGUAUUAUGUUACGCCGUUCGGAUCUGCACUU | -1.46 |
| CACAGACAACACGCACACACACAGACACAGAGGGAAGGGGUUGGGAUGGGGACAGGGUGCACAGCAGGGCGGGGUAGGACCCCAGCCCCU | 1.08 |

Series 4
Target: Histone acetyltransferase KAT6A, winged helix 1, GST fusion (KAT6A, Homo sapiens, UniProt Q92794, residues 1-85)
Method: protein binding microarray
Form: double-stranded DNA, one strand shown
Sample: in vitro
Concentration: not given
Notes: 8-mer, flanks averaged, mean of 2 arrays, mostly near background
Baseline: not given
Reading: higher = stronger binding
Residues (chain): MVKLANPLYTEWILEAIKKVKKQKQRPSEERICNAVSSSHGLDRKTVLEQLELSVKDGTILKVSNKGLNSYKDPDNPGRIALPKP
| Strand | E-score |
| --- | --- |
| CTACAGAG | -0.186 |
| CACGTCGC | 0.253 |
| AAGCACAA | -0.362 |
| AACTTCGG | -0.128 |
| CTGTGTTA | 0.0155 |
| GCAACAAC | -0.0865 |
| ACATTTCA | -0.293 |
| CTCTAGAC | -0.285 |
| AGGCCGTA | 0.322 |
| CTAGCGCA | 0.194 |
| GGAAACCA | -0.00189 |
| AACCATCA | -0.0892 |
| CAACAGTG | -0.151 |
| AGCCAAAC | 0.026 |
| CGTTCAGC | 0.0075 |
| AGGCCCGA | 0.099 |
| CGAGGCAA | 0.00705 |
| AATTCACC | -0.133 |
| TATTATGA | 0.0207 |
